# Results pooled from the literature.
# Lines come from different studies, so protocols differ. ± marks the error that the study gave.
# Organism: SARS-CoV-2
Structure (SMILES),assay,test system,conditions,scale,endpoint,value
CN(C)CCCCNC(=O)C[C@H](Cc1ccc(F)cc1)NC(=O)[C@@H](Cc1ccc(Cl)cc1Cl)NC(=O)[C@@H](O)Cc1ccccc1C#N,viral replication,USA-WA1/2020,,,EC50,1400 nM
Nc1ccc([As]2SCC(C(=O)O)CS2)cc1 (stereo not drawn),spike-pseudotyped lentivector,A549 expressing ACE2 and TMPRSS2,10 µM,reference: untreated,pseudovirus entry,54%
Cc1ccc(S(=O)(=O)Nc2cccc(C(=O)NC3CCN(c4ncnc5[nH]cnc45)CC3)c2)cc1Cl,,Wuhan-Hu-1,0.2743 µM,reference: untreated infected cells,relative infection,66.4%
N#Cc1ccccc1C[C@@H](N)C(=O)N[C@H](Cc1ccc(Cl)cc1Cl)C(=O)N[C@H](CC(=O)NCCCC(N)=O)Cc1ccc(F)cc1,viral replication,USA-WA1/2020,,,EC50,6500 nM
CC(C)(C)c1ccc(-c2cn(-c3ccc(C(=O)C=C(O)C(=O)O)cc3)nn2)cc1,viral replication,VeroE6-TMPRSS2,,,EC50,8500 ± 1300 nM
CC[C@H](C)[C@H](NC(=O)[C@H](C)NC(=O)[C@H](CCC(=O)O)NC(=O)[C@H](CCC(=O)O)NC(=O)[C@H](CC(C)C)NC(=O)[C@H](CCCCN)NC(=O)[C@H](CCCCN)NC(=O)[C@H](CCSC)NC(=O)[C@H](CCC(=O)O)NC(=O)[C@H](Cc1ccc(O)cc1)NC(=O)[C@H](CCC(=O)O)NC(=O)[C@H](CC(C)C)NC(=O)[C@H](CC(=O)O)NC(=O)[C@H](CC(C)C)NC(=O)[C@H](Cc1ccccc1)NC(=O)[C@@H](NC(=O)[C@@H](NC(=O)[C@H](CC(N)=O)NC(=O)[C@@H](NC(=O)[C@H](CCC(N)=O)NC(=O)[C@H](CC(=O)O)NC(=O)[C@H](CC(C)C)NC(=O)[C@@H](N)CO)[C@@H](C)CC)C(C)C)[C@@H](C)O)C(=O)N[C@@H](CCCCN)C(=O)N[C@@H](CCCCN)C(=O)N[C@@H](CC(C)C)C(=O)N[C@@H](CCC(=O)O)C(=O)N[C@@H](CCC(=O)O)C(=O)N[C@@H](CO)C(=O)N[C@@H](Cc1ccc(O)cc1)C(=O)N[C@H](C(=O)N[C@@H](CC(=O)O)C(=O)N[C@@H](CC(C)C)C(=O)N[C@@H](CCCCN)C(=O)N[C@@H](CCC(=O)O)C(=O)N[C@@H](CC(C)C)C(=O)O)[C@@H](C)CC,"pseudovirus infection, inhibitor, luciferase","Caco-2, D614G pseudovirus",24 h,,IC50,645 nM
O=C(NC1CCN(c2ncnc3[nH]cnc23)CC1)c1cccc(NS(=O)(=O)c2ccc(Cl)cc2)c1,,Wuhan-Hu-1,22.22 µM,reference: untreated infected cells,relative infection,26.1%
O=C(O)C(O)=CC(=O)c1cc(Oc2ccccc2)cc(Oc2ccccc2)c1,viral replication,VeroE6,50 µM,,inhibition,70%
CC[C@H](C)[C@H](NC(=O)[C@H](C)NC(=O)[C@H](CCC(=O)O)NC(=O)[C@H](CCC(=O)O)NC(=O)[C@H](CC(C)C)NC(=O)[C@H](CCCCN)NC(=O)[C@H](CCCCN)NC(=O)[C@H](CCSC)NC(=O)[C@H](CCC(=O)O)NC(=O)[C@H](Cc1ccc(O)cc1)NC(=O)[C@H](CCC(=O)O)NC(=O)[C@H](CC(C)C)NC(=O)[C@H](CC(=O)O)NC(=O)[C@H](CC(C)C)NC(=O)[C@H](Cc1ccccc1)NC(=O)[C@H](Cc1ccc(O)cc1)NC(=O)[C@@H](NC(=O)[C@H](CC(N)=O)NC(=O)[C@@H](NC(=O)[C@H](CCC(N)=O)NC(=O)[C@H](CC(=O)O)NC(=O)[C@H](CC(C)C)NC(=O)[C@@H](N)CO)[C@@H](C)CC)C(C)C)C(=O)N[C@@H](CCCCN)C(=O)N[C@@H](CCCCN)C(=O)N[C@@H](CC(C)C)C(=O)N[C@@H](CCC(=O)O)C(=O)N[C@@H](CCC(=O)O)C(=O)N[C@@H](C)C(=O)N[C@@H](Cc1ccc(O)cc1)C(=O)N[C@H](C(=O)N[C@@H](CC(=O)O)C(=O)N[C@@H](CC(C)C)C(=O)N[C@@H](CCCCN)C(=O)N[C@@H](CCC(=O)O)C(=O)N[C@@H](CC(C)C)C(=O)O)[C@@H](C)CC,"pseudovirus infection, inhibitor, luciferase","Caco-2, D614G pseudovirus","24 h, dual mutations",,IC50,282 nM
O=C(NCc1ccc(F)cc1)C1C(=O)N(O)C(=O)c2cc([N+](=O)[O-])ccc21 (stereo not drawn),viral replication,VeroE6,50 µM,,inhibition,10%
CN(C)C(=O)CCCNC(=O)C[C@H](Cc1ccc(F)cc1)NC(=O)[C@@H](Cc1ccc(Cl)cc1Cl)NC(=O)[C@H](N)Cc1ccccc1C#N,viral replication,USA-WA1/2020,,,EC50,3500 nM
O=C(O)C(O)=CC(=O)c1ccc2cc(O)c(O)cc2c1,viral replication,VeroE6-TMPRSS2,,,EC50,> 50000 nM
Cc1ccccc1S(=O)(=O)Nc1cccc(C(=O)NC2CCN(c3ncnc4[nH]cnc34)CC2)c1,,Wuhan-Hu-1,0.09145 µM,reference: untreated infected cells,relative infection,70.3%
CC[C@H](C)[C@H](NC(=O)[C@H](C)NC(=O)[C@H](CCC(=O)O)NC(=O)[C@H](CCC(=O)O)NC(=O)[C@H](CC(C)C)NC(=O)[C@H](CCCCN)NC(=O)[C@H](CCCCN)NC(=O)[C@H](CCSC)NC(=O)[C@H](CCC(=O)O)NC(=O)[C@H](Cc1ccc(O)cc1)NC(=O)[C@H](CCC(=O)O)NC(=O)[C@H](CC(C)C)NC(=O)[C@H](CC(=O)O)NC(=O)[C@H](CC(C)C)NC(=O)[C@H](Cc1ccccc1)NC(=O)[C@@H](NC(=O)[C@@H](NC(=O)[C@H](CC(N)=O)NC(=O)[C@@H](NC(=O)[C@H](CCC(N)=O)NC(=O)[C@H](CC(=O)O)NC(=O)[C@H](CC(C)C)NC(=O)[C@H](CO)NC(=O)[C@H](CC(C)C)NC(=O)[C@H](CC(=O)O)NC(=O)[C@@H]1CCCN1C(=O)[C@H](C)N)[C@@H](C)CC)C(C)C)[C@@H](C)O)C(=O)N[C@@H](CCCCN)C(=O)N[C@@H](CCCCN)C(=O)N[C@@H](CC(C)C)C(=O)N[C@@H](CCC(=O)O)C(=O)N[C@@H](CCC(=O)O)C(=O)N[C@@H](CO)C(=O)N[C@@H](Cc1ccc(O)cc1)C(=O)N[C@H](C(=O)N[C@@H](CC(=O)O)C(=O)N[C@@H](CC(C)C)C(=O)N[C@@H](CCCCN)C(=O)N[C@@H](CCC(=O)O)C(=O)N[C@@H](CC(C)C)C(=O)O)[C@@H](C)CC,"pseudovirus infection, inhibitor, luciferase","Caco-2, D614G pseudovirus",24 h,,IC50,350 nM
COc1ccc(S(=O)(=O)Nc2cccc(C(=O)NC3CCN(c4ncnc5[nH]cnc45)CC3)c2)cc1,viral infection,Wuhan-Hu-1,,,IC50,1760 nM
NS(=O)(=O)c1ccc(-c2cn(-c3ccc(C(=O)C=C(O)C(=O)O)cc3)nn2)cc1,viral replication,VeroE6,50 µM,,inhibition,15%
O=C(NC1CCN(c2ncnc3[nH]cnc23)CC1)c1cccc(NS(=O)(=O)c2ccc([N+](=O)[O-])cc2)c1,,Wuhan-Hu-1,0.2743 µM,reference: untreated infected cells,relative infection,63.9%
CC[C@H](C)[C@H](NC(=O)[C@H](C)NC(=O)[C@H](CCC(=O)O)NC(=O)[C@H](CCC(=O)O)NC(=O)[C@H](CC(C)C)NC(=O)[C@H](CCCCN)NC(=O)[C@H](CCCCN)NC(=O)[C@H](CCSC)NC(=O)[C@H](CCC(=O)O)NC(=O)[C@H](Cc1ccc(O)cc1)NC(=O)[C@H](CCC(=O)O)NC(=O)[C@H](CC(C)C)NC(=O)[C@H](CC(=O)O)NC(=O)[C@H](CC(C)C)NC(=O)[C@H](Cc1ccccc1)NC(=O)[C@H](Cc1ccc(O)cc1)NC(=O)[C@@H](NC(=O)[C@H](CC(N)=O)NC(=O)[C@@H](NC(=O)[C@H](CCC(N)=O)NC(=O)[C@H](CC(=O)O)NC(=O)[C@H](CC(C)C)NC(=O)[C@@H](N)CO)[C@@H](C)CC)C(C)C)C(=O)N[C@@H](CCCCN)C(=O)N[C@@H](CCCCN)C(=O)N[C@@H](CC(C)C)C(=O)N[C@@H](CCC(=O)O)C(=O)N[C@@H](CCC(=O)O)C(=O)N[C@@H](CO)C(=O)N[C@@H](Cc1ccc(O)cc1)C(=O)N[C@H](C(=O)N[C@@H](CC(=O)O)C(=O)N[C@@H](CC(C)C)C(=O)N[C@@H](CCCCN)C(=O)N[C@@H](CCC(=O)O)C(=O)N[C@@H](CC(C)C)C(=O)O)[C@@H](C)CC,"pseudovirus infection, inhibitor, luciferase","Caco-2, D614G pseudovirus",24 h,,IC50,441 nM
O=C(O)C(O)=CC(=O)C1(Cc2ccc(Cl)cc2)CCN(C(=O)C=Cc2ccccc2)CC1,viral replication,VeroE6,50 µM,,inhibition,15%
CC[C@H](C)[C@H](NC(=O)[C@H](C)NC(=O)[C@H](CCC(=O)O)NC(=O)[C@H](CCC(=O)O)NC(=O)[C@H](CC(C)C)NC(=O)[C@H](CCCCN)NC(=O)[C@H](CCCCN)NC(=O)[C@H](CCSC)NC(=O)[C@H](CCC(=O)O)NC(=O)[C@H](Cc1ccc(O)cc1)NC(=O)[C@H](CCC(=O)O)NC(=O)[C@H](CC(C)C)NC(=O)[C@H](CC(=O)O)NC(=O)[C@H](CC(C)C)NC(=O)[C@H](Cc1ccccc1)NC(=O)[C@@H](NC(=O)[C@@H](NC(=O)[C@H](CC(N)=O)NC(=O)[C@@H](NC(=O)[C@H](CCC(N)=O)NC(=O)[C@H](CC(=O)O)NC(=O)[C@H](CC(C)C)NC(=O)[C@H](CO)NC(=O)CNC(=O)[C@H](CC(C)C)NC(=O)[C@H](CC(=O)O)NC(=O)[C@@H](N)C(C)C)[C@@H](C)CC)C(C)C)[C@@H](C)O)C(=O)N[C@@H](CCCCN)C(=O)N[C@@H](CCCCN)C(=O)N[C@@H](CC(C)C)C(=O)N[C@@H](CCC(=O)O)C(=O)N[C@@H](CCC(=O)O)C(=O)N[C@@H](CO)C(=O)N[C@@H](Cc1ccc(O)cc1)C(=O)N[C@H](C(=O)N[C@@H](CC(=O)O)C(=O)N[C@@H](CC(C)C)C(=O)N[C@@H](CCCCN)C(=O)N[C@@H](CCC(=O)O)C(=O)N[C@@H](CC(C)C)C(=O)O)[C@@H](C)CC,"pseudovirus infection, inhibitor, luciferase","Caco-2, D614G pseudovirus",24 h,,IC50,416 nM
O=C(O)C(O)=CC(=O)C1(Cc2ccc(Cl)cc2)CCN(Cc2ccc3ccccc3c2)CC1,viral replication,VeroE6,50 µM,,inhibition,50%

# A few entries again:
Structure (SMILES),assay,test system,conditions,scale,endpoint,value
COc1ccc(S(=O)(=O)Nc2cccc(C(=O)NC3CCN(c4ncnc5[nH]cnc45)CC3)c2)cc1,viral infection,Wuhan-Hu-1,,,IC50,1760 nM
CC(C)(C)c1ccc(-c2cn(-c3ccc(C(=O)C=C(O)C(=O)O)cc3)nn2)cc1,viral replication,VeroE6-TMPRSS2,,,EC50,8500 ± 1300 nM
